# Measurements gathered from unrelated publications.
# A part holds a random share of what one study measured.

# Block 1 — method: protein-binding microarray; molecule type: double-stranded DNA, one strand shown; medium: in vitro; concentration: 2540 nM top; setting: 60-bp whole probe; together with: salmon DNA 0.4 mg/ml; baseline: random background probes; reading: higher = stronger binding; all sequences stand within: GCCTAGCAC … GTCTTGATTCGCTTGACGCTGCTG
# Target: Interferon regulatory factor 3, full length, phosphomimetic (IRF3, Homo sapiens, UniProt Q14653, residues 1-427, S386D/S396D/S398D/S402D/T404D/S405D)
# UniProt Q14653, sequence (whole entry, unmodified, looked up): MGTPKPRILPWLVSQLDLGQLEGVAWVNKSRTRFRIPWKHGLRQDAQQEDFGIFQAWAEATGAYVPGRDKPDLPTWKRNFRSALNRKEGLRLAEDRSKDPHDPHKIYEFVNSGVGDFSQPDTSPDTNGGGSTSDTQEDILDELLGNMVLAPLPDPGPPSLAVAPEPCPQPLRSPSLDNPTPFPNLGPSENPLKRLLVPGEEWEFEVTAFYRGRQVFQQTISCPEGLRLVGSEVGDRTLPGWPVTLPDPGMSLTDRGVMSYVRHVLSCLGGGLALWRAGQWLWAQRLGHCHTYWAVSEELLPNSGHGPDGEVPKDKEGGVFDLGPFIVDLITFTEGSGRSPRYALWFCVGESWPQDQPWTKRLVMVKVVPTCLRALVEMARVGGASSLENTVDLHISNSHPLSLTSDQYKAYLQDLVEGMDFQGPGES
Sequence,fitted relative affinity
GACGGTTTCCTTTTCCAGACGTGCTAG,11.3 z-score
TTAGGTATCGGGACAGGGTTAGTGCTA,0.88 z-score
GACGAACTGAGTATCGAGTCGTGCTAG,0.242 z-score
GACGGTCTCAGACTGGGGACGTGCTAG,0.177 z-score
TCAGGTTTCGACACTGGGTTAGTGCTA,2.46 z-score
GACGGTCGCGGACTGGGGACGTGCTAG,-0.626 z-score
GACGACTTCGGGACTGGAGACGTGCTA,-0.436 z-score
GACGGTTTCCTTCTCTTGACGTGCTAG,10 z-score
TCATCTGTCATGTTTGTCACTGTGCTA,0.324 z-score

# Block 2 — method: protein-binding microarray; molecule type: double-stranded DNA, one strand shown; medium: in vitro; concentration: 0.8 µM; setting: whole 60-bp probe, no competitor; reading: higher = stronger binding; all sequences stand within: … GTCTTGATTCGCTTGACGCTGCTG
# Target: Centromere-binding protein 1, full length, N-terminal tag (CBF1, Saccharomyces cerevisiae, UniProt P17106, residues 1-351)
# UniProt P17106, sequence (whole entry, looked up): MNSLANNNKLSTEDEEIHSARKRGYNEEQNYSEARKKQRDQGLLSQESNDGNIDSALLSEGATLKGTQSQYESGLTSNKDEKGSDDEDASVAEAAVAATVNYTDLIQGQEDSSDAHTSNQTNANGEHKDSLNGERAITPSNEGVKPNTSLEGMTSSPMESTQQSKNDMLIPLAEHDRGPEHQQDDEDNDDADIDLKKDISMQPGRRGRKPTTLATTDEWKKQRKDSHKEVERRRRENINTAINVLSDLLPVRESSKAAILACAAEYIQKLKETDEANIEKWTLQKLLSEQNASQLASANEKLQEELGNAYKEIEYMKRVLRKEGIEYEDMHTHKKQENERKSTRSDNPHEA
Sequence,fluorescence intensity
GAACCAACATTATTAATCGTGACTAATATAACATAG,919 a.u.
CTATTTGATAATGAGCATGTGATCCGGAAAGCTTTC,5730 a.u.
GAAAAATAGTGCTGGTTCGTGACGTGTAAATTCTAG,843 a.u.
GAAAATAACGCACATGGTGGTGTACGGGTGTGTTAG,1230 a.u.
CTATCCCTTTGGCGACGCGTCACCTGGGACGGGTTC,1100 a.u.
GAATTGGAATGTGTTCACGTGACGCTATCGACATAG,18900 a.u.
GAATTGTTTCAATTCCTGATGTTCATCAAAATATAG,496 a.u.
GAAGTTGATAAAGGTCACCTTATACGTTCTATGTAG,564 a.u.

# Block 3 — method: protein binding microarray; molecule type: double-stranded DNA, one strand shown; medium: in vitro; concentration: not given; baseline: not given; reading: higher = stronger binding
# Target: Histone acetyltransferase KAT6A, both winged helices, GST fusion (KAT6A, Homo sapiens, UniProt Q92794, residues 1-181)
# Setting: 8-mer, flanks averaged, mean of 2 arrays, mostly near background
# Residues (chain): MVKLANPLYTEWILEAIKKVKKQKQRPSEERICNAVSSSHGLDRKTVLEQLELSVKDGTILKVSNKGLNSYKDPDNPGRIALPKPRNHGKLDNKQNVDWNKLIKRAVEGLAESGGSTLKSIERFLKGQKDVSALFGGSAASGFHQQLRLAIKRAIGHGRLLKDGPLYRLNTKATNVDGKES
Sequence,E-score
AGGCCTCA,-0.0766
GACACGCC,0.123
ACGTGACA,-0.0406
CTCGGAGC,0.0867
GAATACCC,0.00844
ACCCAAAA,-0.139
GGTAGTCA,-0.0764

# Mixed results
Molecule,target,assay,system,setting,how to read,quantity,result
"PhoQ, residues 284 288 289 292 302 303 MLMVEA","PhoP, residues 12 14 15 18 19 HEGLL (Escherichia coli, UniProt P23836)","Sort-seq, item: YFP reporter",E. coli,"PhoQ-PhoP variant library, together with: 10 µM Mg2+","baseline: high Mg2+ state, higher = stronger signaling",fold induction,10.4

# Some of these lines once more (block 2):
Sequence,fluorescence intensity
GAATTGTTTCAATTCCTGATGTTCATCAAAATATAG,496 a.u.
GAACCAACATTATTAATCGTGACTAATATAACATAG,919 a.u.
CTATCCCTTTGGCGACGCGTCACCTGGGACGGGTTC,1100 a.u.
